Published values pooled from the literature.
Protocols differ between the studies behind these lines.
UniProt Q9P2K8, sequence (whole entry, unmodified, looked up): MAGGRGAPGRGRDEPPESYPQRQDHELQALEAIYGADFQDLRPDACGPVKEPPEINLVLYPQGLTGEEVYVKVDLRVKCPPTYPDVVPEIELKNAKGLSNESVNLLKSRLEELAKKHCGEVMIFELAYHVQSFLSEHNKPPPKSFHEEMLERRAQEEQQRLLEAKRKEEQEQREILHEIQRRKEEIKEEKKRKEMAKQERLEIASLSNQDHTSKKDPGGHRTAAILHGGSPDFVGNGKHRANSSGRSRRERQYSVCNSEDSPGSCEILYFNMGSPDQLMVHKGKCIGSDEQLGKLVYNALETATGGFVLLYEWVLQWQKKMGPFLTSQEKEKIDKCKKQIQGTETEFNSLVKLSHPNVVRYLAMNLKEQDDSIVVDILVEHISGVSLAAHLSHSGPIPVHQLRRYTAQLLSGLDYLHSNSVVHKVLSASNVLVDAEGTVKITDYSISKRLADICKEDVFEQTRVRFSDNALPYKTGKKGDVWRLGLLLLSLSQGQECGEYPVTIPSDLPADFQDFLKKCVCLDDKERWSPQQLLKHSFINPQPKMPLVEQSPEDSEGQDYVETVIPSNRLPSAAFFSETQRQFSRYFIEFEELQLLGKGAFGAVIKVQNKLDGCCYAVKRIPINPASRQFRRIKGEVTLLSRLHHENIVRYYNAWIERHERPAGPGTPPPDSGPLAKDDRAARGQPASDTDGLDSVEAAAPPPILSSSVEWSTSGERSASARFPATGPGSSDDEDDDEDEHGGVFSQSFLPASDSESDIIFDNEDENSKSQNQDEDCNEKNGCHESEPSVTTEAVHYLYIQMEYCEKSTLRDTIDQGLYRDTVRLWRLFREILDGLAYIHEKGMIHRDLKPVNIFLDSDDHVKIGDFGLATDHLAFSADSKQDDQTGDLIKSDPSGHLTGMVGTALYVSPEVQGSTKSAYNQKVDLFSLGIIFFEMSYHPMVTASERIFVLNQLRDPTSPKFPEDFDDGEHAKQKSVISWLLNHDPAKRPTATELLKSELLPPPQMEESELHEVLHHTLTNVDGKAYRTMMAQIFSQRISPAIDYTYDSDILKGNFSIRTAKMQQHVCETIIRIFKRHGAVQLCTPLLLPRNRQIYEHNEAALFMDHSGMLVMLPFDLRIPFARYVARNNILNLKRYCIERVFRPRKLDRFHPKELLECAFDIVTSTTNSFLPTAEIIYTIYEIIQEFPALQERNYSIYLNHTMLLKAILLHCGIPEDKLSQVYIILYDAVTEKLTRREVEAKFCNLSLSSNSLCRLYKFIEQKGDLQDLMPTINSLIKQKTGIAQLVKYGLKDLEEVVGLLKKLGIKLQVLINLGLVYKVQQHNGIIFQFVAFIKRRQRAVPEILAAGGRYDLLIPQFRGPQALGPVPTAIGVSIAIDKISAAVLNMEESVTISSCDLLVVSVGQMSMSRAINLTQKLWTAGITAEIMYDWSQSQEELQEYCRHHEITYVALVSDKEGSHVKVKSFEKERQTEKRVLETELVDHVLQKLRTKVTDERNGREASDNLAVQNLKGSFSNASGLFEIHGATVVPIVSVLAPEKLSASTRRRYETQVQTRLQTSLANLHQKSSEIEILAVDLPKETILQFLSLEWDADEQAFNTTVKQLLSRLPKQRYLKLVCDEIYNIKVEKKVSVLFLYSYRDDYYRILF
UniProt Q9P1W9, sequence (whole entry, looked up): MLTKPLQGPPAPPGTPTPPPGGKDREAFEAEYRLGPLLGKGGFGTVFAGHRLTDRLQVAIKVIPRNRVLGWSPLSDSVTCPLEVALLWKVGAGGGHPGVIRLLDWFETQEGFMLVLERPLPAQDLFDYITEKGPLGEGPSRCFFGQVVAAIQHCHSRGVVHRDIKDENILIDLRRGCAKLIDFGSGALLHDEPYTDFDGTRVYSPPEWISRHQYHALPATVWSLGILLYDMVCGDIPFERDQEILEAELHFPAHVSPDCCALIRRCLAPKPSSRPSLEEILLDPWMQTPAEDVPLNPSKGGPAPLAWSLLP
UniProt Q9UKE5, sequence (whole entry, looked up): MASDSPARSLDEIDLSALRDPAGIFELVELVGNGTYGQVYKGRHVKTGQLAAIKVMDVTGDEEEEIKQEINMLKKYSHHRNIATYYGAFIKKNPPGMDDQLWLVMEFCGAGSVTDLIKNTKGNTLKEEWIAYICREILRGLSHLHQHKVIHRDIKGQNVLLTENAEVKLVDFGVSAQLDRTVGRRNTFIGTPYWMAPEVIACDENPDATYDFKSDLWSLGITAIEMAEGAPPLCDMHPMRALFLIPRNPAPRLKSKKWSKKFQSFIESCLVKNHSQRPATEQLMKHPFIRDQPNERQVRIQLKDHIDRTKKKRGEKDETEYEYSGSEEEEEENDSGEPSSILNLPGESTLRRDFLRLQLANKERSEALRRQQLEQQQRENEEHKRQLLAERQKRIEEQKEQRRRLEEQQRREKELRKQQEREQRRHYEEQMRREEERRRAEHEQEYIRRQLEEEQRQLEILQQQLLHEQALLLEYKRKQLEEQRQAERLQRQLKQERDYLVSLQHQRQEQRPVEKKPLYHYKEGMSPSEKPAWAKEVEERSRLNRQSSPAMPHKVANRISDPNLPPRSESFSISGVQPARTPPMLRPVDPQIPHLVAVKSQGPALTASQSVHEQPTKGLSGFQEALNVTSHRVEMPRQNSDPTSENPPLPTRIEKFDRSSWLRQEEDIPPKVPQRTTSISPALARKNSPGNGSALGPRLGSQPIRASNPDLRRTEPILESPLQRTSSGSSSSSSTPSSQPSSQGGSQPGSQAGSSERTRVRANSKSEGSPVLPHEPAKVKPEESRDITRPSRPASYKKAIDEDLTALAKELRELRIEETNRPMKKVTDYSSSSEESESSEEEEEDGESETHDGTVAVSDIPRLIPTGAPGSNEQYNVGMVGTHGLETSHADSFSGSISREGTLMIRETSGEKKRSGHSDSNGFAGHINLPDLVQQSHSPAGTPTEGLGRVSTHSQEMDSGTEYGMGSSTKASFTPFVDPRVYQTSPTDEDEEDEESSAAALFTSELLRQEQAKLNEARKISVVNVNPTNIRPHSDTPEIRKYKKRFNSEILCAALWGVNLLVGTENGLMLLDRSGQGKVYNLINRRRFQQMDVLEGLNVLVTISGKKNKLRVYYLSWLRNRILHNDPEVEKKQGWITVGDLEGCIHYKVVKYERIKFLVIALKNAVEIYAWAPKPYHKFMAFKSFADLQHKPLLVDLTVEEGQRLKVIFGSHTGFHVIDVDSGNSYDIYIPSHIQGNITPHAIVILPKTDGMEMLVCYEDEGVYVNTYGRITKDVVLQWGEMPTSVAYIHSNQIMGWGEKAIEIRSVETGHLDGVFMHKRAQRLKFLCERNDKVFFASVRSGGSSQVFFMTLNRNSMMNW
UniProt Q9H4B4, sequence (whole entry, looked up): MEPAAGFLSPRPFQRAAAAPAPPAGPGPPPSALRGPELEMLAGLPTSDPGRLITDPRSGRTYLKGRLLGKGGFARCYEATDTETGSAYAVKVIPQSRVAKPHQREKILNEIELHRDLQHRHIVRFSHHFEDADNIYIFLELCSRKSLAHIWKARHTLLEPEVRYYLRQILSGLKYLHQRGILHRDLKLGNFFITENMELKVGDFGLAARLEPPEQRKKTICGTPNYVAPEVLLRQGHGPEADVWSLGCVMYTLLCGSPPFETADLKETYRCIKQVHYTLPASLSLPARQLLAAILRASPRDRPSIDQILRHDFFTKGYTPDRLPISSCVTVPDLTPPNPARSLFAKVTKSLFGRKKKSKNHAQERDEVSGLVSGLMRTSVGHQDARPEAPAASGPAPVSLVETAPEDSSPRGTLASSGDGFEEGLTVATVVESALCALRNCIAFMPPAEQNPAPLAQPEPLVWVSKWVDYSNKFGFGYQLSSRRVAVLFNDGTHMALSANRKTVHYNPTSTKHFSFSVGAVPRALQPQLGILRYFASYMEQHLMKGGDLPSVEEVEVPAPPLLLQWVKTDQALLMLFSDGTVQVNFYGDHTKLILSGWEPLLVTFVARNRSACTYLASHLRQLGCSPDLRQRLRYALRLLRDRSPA

| Compound | tested on | assay | conditions | quantity | value |
| --- | --- | --- | --- | --- | --- |
| O=S(=O)(c1ccccc1)n1nc(-c2ccc(CO)o2)c2ccccc21 | RBE | cell growth or viability, ATP luminescence | 46 µM, 72 h | inhibition | 6% |
| C[C@@H]1CC[C@@H]([C@](C)(O)CNCc2ccccc2F)[C@H](OCc2ccccc2)C1 | HeLa | cell growth or viability, MTT | 10 µM, 72 h | inhibition | 63.7% |
| CNc1ncc2c(/C=C/C(=O)N3CCC(OC)CC3)nn(Cc3cccc(C(F)(F)F)c3)c2n1 | Serine/threonine-protein kinase pim-2 (PIM2, Homo sapiens, UniProt Q9P1W9) | enzyme activity, inhibitor, radiometric | 1 µM | remaining activity | 102% |
| C[C@@H]1CC[C@@H]([C@](O)(CNCc2ccccc2)COCc2ccc(F)cc2)[C@H](OCc2ccc(F)cc2)C1 | A2780 | cell growth or viability, MTT | 30 µM, 72 h | inhibition | 97.3% |
| C=CC(=O)N1CCC(COCC(=O)N2CCN(c3nc(-c4cnc(N)nc4C(F)F)nc(N4CCOC[C@@H]4C)n3)CC2)CC1 | TRAF2 and NCK-interacting protein kinase (TNIK, Homo sapiens, UniProt Q9UKE5) | binding, competition with immobilised ligand | 1 µM | remaining binding | 92% |
| Cc1cc(=O)oc2ccc(-c3cc(-c4ccc(Cl)cc4)nc(N)n3)c(O)c12 | KB | cell growth or viability, MTT | 2 µg/mL, 72 h | inhibition | 37% |
| Cc1cc(NS(=O)(=O)c2ccc(N=NN(O)c3ccccc3)cc2)no1 | – | ABTS scavenging | 300 µg/mL | inhibition | 98.7% |
| Cc1ccc(-c2cc(-c3ccc4oc(=O)cc(C)c4c3O)nc(N)n2)cc1 | KB | cell growth or viability, MTT | 2 µg/mL, 72 h | inhibition | 0% |
| CCCCC(=O)Nc1ccc(-c2ccc3ncn(CCC)c(=O)c3c2)cn1 | eIF-2-alpha kinase GCN2 (EIF2AK4, Homo sapiens, UniProt Q9P2K8, S808G) | binding, competition with immobilised ligand | 0.5 µM | remaining binding | 76% |
| COc1ccc(Cn2nc(-c3ccc(CO)o3)c3ccccc32)cc1 | RBE | cell growth or viability, ATP luminescence | 46 µM, 72 h | inhibition | 70% |
| Cc1cc(=O)oc2ccc(-c3cc(-c4cccs4)nc(N)n3)c(O)c12 | KB | cell growth or viability, MTT | 32 µg/mL, 72 h | inhibition | 0% |
| C[C@@H]1CC[C@@H]([C@@](O)(CNCc2ccccc2)COCc2ccccc2)[C@H](OCc2ccccc2)C1 | A2780 | cell growth or viability, MTT | 10 µM, 72 h | inhibition | 99% |
| CCC(=CCc1c(O)cc2c(c1O)C(=O)C[C@@H](c1ccccc1O)O2)CC | HeLa | cell growth or viability, MTT | 1.875 µM, 48 h | inhibition | -3.59% |
| COc1ccc(-c2cc(-c3ccc4oc(=O)cc(C)c4c3O)nc(N)n2)cc1 | KB | cell growth or viability, MTT | 2 µg/mL, 72 h | inhibition | 0% |
| OCc1ccc(-c2ccc(-c3ccc(CO)s3)o2)s1 | RBE | cell growth or viability, ATP luminescence | 46 µM, 72 h | inhibition | 60.3% |
| COc1cc(-c2cncc3c2CN(C)Cc2cc(N4CCNCC4)ccc2-3)cc(OC)c1OC | STE20/SPS1-related proline-alanine-rich protein kinase (STK39, Homo sapiens, UniProt Q9UEW8) | enzyme activity, inhibitor | 1 µM | remaining activity | 105% |
| Cc1cc(Nc2ncc(Cl)c(Nc3ccccc3S(=O)(=O)C(C)C)n2)c(OC(C)C)cc1C1CCNCC1 | KARPAS-299 | cell growth or viability, MTT | 0.00229 µg/mL, 72 h | inhibition | -4.3% |
| Cc1cc([C@@H](C)Nc2ccccc2C(=O)O)c2nc(N3CCC(F)(F)CC3)c(C#N)c(=O)n2c1 | Serine/threonine-protein kinase PLK3 (PLK3, Homo sapiens, UniProt Q9H4B4) | binding, competition with immobilised ligand | 1 µM | remaining binding | 95% |
| CN(C)C(=O)c1cn([C@@]23CCC[C@@](C)(CC[C@@H]4[C@@H]2CC4(C)C)C3)nn1 | HT-29 | cell growth or viability, CCK-8 | 10 µM | inhibition | < 50% |

| Compound | tested on | assay | conditions | quantity | value |
| --- | --- | --- | --- | --- | --- |
| Cc1cc(=O)oc2ccc(-c3cc(-c4ccccc4)nc(N)n3)c(O)c12 | KB | cell growth or viability, MTT | 128 µg/mL, 72 h | inhibition | 47% |
| C[C@@H]1CC[C@@H]([C@@](O)(CNCc2cccc3ccccc23)COCc2ccccc2)[C@H](OCc2ccccc2)C1 | HeLa | cell growth or viability, MTT | 30 µM, 72 h | inhibition | 99% |
| CC1(C)C[C@H]2[C@H]1CC[C@]1(C)CCC[C@@]2(n2cc(-c3ccc(F)cc3)nn2)C1 | HT-29 | cell growth or viability, CCK-8 | 50 µM | inhibition | 36.2% |
| CCC(=CCc1c(O)cc2c(c1O)C(=O)C[C@@H](c1ccc(O)cc1)O2)CC | HeLa | cell growth or viability, MTT | 25 µM, 48 h | inhibition | 55.7% |
| C[C@@H]1CC[C@@H]([C@](C)(O)CNCc2ccccc2)[C@H](OCc2ccccc2)C1 | HeLa | cell growth or viability, MTT | 30 µM, 72 h | inhibition | 98.1% |
| Cc1cc(=O)oc2ccc(-c3cc(-c4cccc([N+](=O)[O-])c4)nc(N)n3)c(O)c12 | KB | cell growth or viability, MTT | 128 µg/mL, 72 h | inhibition | 95% |
| C[C@@H](Oc1cc(-c2cnn(C3CCNCC3)c2)cnc1N)c1c(Cl)ccc(F)c1Cl | KARPAS-299 | cell growth or viability, MTT | 0.0016 µg/mL, 72 h | inhibition | 19.5% |
| COc1ncccc1Cn1nc(-c2ccc(CO)o2)c2ccccc21 | RBE | cell growth or viability, ATP luminescence | 46 µM, 72 h | inhibition | 50% |
| COc1cccc(CNC[C@@](C)(O)[C@@H]2CC[C@@H](C)C[C@H]2OCc2ccccc2)c1 | HeLa | cell growth or viability, MTT | 10 µM, 72 h | inhibition | 65.3% |
| CC1(C)C[C@H]2[C@H]1CC[C@]1(C)CCC[C@@]2(NS(=O)(=O)c2cc(Cl)cc(Cl)c2O)C1 | HT-29 | cell growth or viability, CCK-8 | 50 µM | inhibition | 93.9% |
| CCN(Cc1c(Cl)cccc1Cl)c1ccc(CO)c(Cl)c1 | RBE | cell growth or viability, ATP luminescence | 46 µM, 72 h | inhibition | 59% |
| CC1(C)C[C@H]2[C@H]1CC[C@]1(C)CCC[C@@]2(n2cc(C(=O)N3CCNCC3)nn2)C1 | HT-29 | cell growth or viability, CCK-8 | 50 µM | inhibition | 98.5% |
| OCc1ccc(-c2nn(Cc3ccccc3)c3cccnc23)o1 | RBE | cell growth or viability, ATP luminescence | 46 µM, 72 h | inhibition | 65% |
| C=C(C)[C@@H]1CC[C@@H](C)C[C@H]1OCc1ccccc1 | HeLa | cell growth or viability, MTT | 10 µM, 72 h | inhibition | 36% |
| OCc1ccc(-c2nn(CC3CCCCC3)c3ccccc23)o1 | RBE | cell growth or viability, ATP luminescence | 46 µM, 72 h | inhibition | 82% |
| CCCCCCCCCCCCCCCCCCOc1cccc(CC(=O)OCC[N+](CC)(CC)CC)c1 | NCI-H226 | cell growth or viability, SRB | 10 µM | inhibition | 40.5% |
| CC(O)c1ccc(-c2nn(Cc3ccccc3)c3ccccc23)o1 (stereo not shown) | RBE | cell growth or viability, ATP luminescence | 46 µM, 72 h | inhibition | 64% |
| CCN(O)N=Nc1ccc(S(=O)(=O)Nc2onc(C)c2C)cc1 | – | ABTS scavenging | 300 µg/mL | inhibition | 57.3% |

A few entries again:
| Compound | tested on | assay | conditions | quantity | value |
| --- | --- | --- | --- | --- | --- |
| CCN(O)N=Nc1ccc(S(=O)(=O)Nc2onc(C)c2C)cc1 | – | ABTS scavenging | 300 µg/mL | inhibition | 57.3% |
| OCc1ccc(-c2ccc(-c3ccc(CO)s3)o2)s1 | RBE | cell growth or viability, ATP luminescence | 46 µM, 72 h | inhibition | 60.3% |
| CC1(C)C[C@H]2[C@H]1CC[C@]1(C)CCC[C@@]2(NS(=O)(=O)c2cc(Cl)cc(Cl)c2O)C1 | HT-29 | cell growth or viability, CCK-8 | 50 µM | inhibition | 93.9% |
